Measured values collected from several papers.
Each numbered part is a random draw from the data of one study; scales do not carry over between parts.

Set 1 — method: universal PBM; form: double-stranded DNA, one strand shown; sample: in vitro; tested at: 600 nM; direction: higher = stronger binding
Target: Sal-like protein 4, full length isoform A (SALL4, Homo sapiens, UniProt Q9UJQ4, residues 1-1053)
Chain of UniProt Q9UJQ4 (whole entry, looked up): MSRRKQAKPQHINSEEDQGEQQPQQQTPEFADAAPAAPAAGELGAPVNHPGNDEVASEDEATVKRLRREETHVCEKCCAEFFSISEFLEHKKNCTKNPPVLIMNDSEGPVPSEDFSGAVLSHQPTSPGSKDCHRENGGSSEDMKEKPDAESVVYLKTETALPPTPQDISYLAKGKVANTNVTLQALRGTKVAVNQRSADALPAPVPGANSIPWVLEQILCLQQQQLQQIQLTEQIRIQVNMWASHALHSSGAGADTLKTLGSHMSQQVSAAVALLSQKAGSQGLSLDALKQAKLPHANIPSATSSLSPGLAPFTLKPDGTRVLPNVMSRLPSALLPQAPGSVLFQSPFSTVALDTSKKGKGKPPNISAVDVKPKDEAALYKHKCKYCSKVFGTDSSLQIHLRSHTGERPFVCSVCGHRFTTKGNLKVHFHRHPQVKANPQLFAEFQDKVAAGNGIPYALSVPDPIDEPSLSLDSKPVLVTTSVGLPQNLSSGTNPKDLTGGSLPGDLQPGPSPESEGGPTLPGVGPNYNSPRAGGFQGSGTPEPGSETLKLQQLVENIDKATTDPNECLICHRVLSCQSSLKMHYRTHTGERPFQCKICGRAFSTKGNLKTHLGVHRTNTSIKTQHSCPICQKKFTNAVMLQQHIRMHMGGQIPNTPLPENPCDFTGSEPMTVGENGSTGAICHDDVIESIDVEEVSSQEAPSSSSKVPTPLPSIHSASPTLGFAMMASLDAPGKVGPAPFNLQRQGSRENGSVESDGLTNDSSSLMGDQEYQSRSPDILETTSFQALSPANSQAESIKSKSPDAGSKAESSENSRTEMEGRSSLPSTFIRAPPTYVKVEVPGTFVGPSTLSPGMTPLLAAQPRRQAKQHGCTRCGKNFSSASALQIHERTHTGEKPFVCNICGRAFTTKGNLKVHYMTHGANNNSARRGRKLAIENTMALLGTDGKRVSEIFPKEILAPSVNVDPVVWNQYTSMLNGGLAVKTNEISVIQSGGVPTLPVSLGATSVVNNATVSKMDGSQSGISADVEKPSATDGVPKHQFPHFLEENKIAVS
Notes: 8-mer, flanks averaged, mean of replicates
Oligonucleotide	E-score
CAAAAGTA	0.252
ATCGAGTG	-0.0187
GATCCGGC	-0.215
CCGTGTAA	-0.0568
AAATGGAT	0.189
GGGTGACA	-0.271
CGACATTA	0.197
CGCACCTC	-0.22

Set 2 — observed: enzyme activity; mode: inhibitor; tested at: 20 µM; notes: primary screen
Target: Replicase polyprotein 1ab, main protease (rep, Severe acute respiratory syndrome coronavirus 2, UniProt P0DTD1)
SMILES	inhibition [%]
c1ccc2sc(SNC3CCCCC3)nc2c1	70.1
O=C(Nc1cc(C(F)(F)F)ccc1O)Nc1cc(C(F)(F)F)ccc1O	29
CN1CCN2c3c(cccc31)[C@@H]1CN(CCCC(=O)c3ccc(F)cc3)CC[C@@H]12	36
COc1ccc2[nH]c([S+]([O-])Cc3ncc(C)c(OC)c3C)nc2n1 (centres unmarked)	69.1

Set 3 — observed: enzyme activity; mode: inhibitor; tested at: 20 µM
Target: Replicase polyprotein 1ab, polymerase (rep, Severe acute respiratory syndrome coronavirus 2, UniProt P0DTD1)
Compound	inhibition
N[C@H](C(=O)O)[C@H](O)c1ccc(O)c(O)c1	0.36%
Cc1nnsc1C(=O)Nc1ccc(-n2nc(C(F)(F)F)cc2C(F)(F)F)cc1	-5.15%
C[C@H](Cc1ccc2c(c1)OC(C(=O)O)(C(=O)O)O2)NC[C@H](O)c1cccc(Cl)c1	4.75%
O=C(O)/C=C(/CC(=O)O)C(=O)O	3.47%
CC(C)[C@](O)(c1ccc2cc(OC(F)F)c(OC(F)F)cc2c1)c1c[nH]nn1	2.18%
COc1cccc(OC)c1OCCNCC1COc2ccccc2O1 (centres unmarked)	-12.6%
CCN(CC)C(=O)[C@]1(c2ccccc2)C[C@@H]1CN (racemic)	-13.6%
CC(C)[C@H]1CC[C@H](C(=O)N[C@H](Cc2ccccc2)C(=O)O)CC1	-4.46%
COc1cc2c(cc1OC)-c1c/c(=N\c3c(C)cc(C)cc3C)n(C)c(=O)n1CC2	1.52%
CCc1c(C)[nH]c2c1C(=O)C(CN1CCOCC1)CC2 (centres unmarked)	-1.57%
COc1ccc(CNCc2cccc3ccccc23)cc1	4.92%
NC1=N[C@@]2(c3cc(NC(=O)c4ccc(F)cn4)ccc3F)COC[C@H]2CS1	-5.51%
CCN(CC)CCCCC1CCN(CC(=O)N2c3ccccc3C(=O)Nc3cccnc32)CC1	-2.69%
Cc1ccccc1-c1cc(N2CCN(C)CC2)ncc1N(C)C(=O)C(C)(C)c1cc(C(F)(F)F)cc(C(F)(F)F)c1	-9.39%
O=P(O)(O)C(O)(Cn1ccnc1)P(=O)(O)O	-0.27%
CN(C)CCCNC(=O)c1ccc(-c2cc(O)c3ncccc3c2)cc1	4.04%
CC1=C(/C=C/C(C)=C/C=C/C(C)=C/C(=O)O)C(C)(C)CCC1	-14.5%
COC(=O)C1=CO[C@@H](O)[C@@H]2C(CO)=CC[C@H]12	-1.82%
CC(=O)O[C@]1(C(C)=O)CC[C@H]2[C@@H]3CCC4=CC(=O)CCC4=C3[C@@H](c3ccc(N(C)C)cc3)C[C@@]21C	6.14%
O=C(Cn1c(=O)sc2ccc(Cl)cc21)N1CCN(CCO)CC1	-9.35%
CC[C@H](C)[C@H](NC(=O)[C@H](Cc1ccc(O)cc1)NC(=O)[C@@H](NC(=O)[C@H](CCCNC(=N)N)NC(=O)[C@@H](N)CC(=O)O)C(C)C)C(=O)N[C@@H](Cc1c[nH]cn1)C(=O)N1CCC[C@H]1C(=O)O	-13.8%
O=C(O)c1ccc(NC(=O)[C@H](Cc2ccc(O)cc2)NC(=O)c2ccccc2)cc1	1%
O=C1NC(=O)C(c2cnc3ccccn23)=C1c1cn2c3c(cc(F)cc13)CN(C(=O)N1CCCCC1)CC2	7.46%
Cc1cc(C(C)(C)C)cc(C)c1CC1=NCCN1	-0.06%
C=CC(=O)Nc1cc(Nc2nccc(-c3c[nH]c4ccccc34)n2)c(OC)cc1N(C)CCN(C)C	-1.81%

Set 4 — method: RNA Bind-n-Seq; form: RNA; sample: in vitro; tested at: 1 µM; notes: whole 134-nt RNA, ends assumed; added: 150 mM KCl; reference: input library; direction: higher = stronger binding
Target: Ras GTPase-activating protein-binding protein 1, C-terminal RGG region (G3BP1, Homo sapiens, UniProt Q13283)
Chain of UniProt Q13283 (whole entry, looked up): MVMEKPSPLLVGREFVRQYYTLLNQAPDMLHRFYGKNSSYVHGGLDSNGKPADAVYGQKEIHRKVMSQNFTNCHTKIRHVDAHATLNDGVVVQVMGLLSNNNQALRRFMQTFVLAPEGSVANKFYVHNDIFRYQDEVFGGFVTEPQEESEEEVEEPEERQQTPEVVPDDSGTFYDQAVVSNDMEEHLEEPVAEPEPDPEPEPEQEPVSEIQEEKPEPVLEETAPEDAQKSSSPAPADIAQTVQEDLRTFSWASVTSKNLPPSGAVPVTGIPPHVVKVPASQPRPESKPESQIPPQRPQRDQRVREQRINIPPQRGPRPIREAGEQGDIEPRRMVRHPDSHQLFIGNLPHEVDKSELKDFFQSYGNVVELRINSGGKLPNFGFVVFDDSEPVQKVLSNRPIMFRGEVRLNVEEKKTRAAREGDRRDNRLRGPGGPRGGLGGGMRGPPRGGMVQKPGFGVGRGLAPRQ
Shared flanks, not repeated: GGGAGUUCUACAGUCCGACGAUC … UGGAAUUCUCGGGUGUCAAGG
Oligonucleotide	log2 enrichment
AGUCCUGUGCUACACAUCGUAUGUACCGAAUCGGGAAAAAGGGUUUUUUUGGGAGGGAAAGUAUUAUGUUACGCCGUUCGGAUCUGCACU	0.309
GUCCUGUGCUACACAUCGUAUGUACCGAAUCAAACCCCCAAAUUUUUAAACCCCCAAAAAAGUAUUAUGUUACGCCGUUCGGAUCUGCAC	-0.869
AAGUCCUGUGCUACACAUCGUAUGUACCGAAUCGGAAAAGGGAAAAGGAAAAGGGGAAAGUAUUAUGUUACGCCGUUCGGAUCUGCACUU	-1.59
AGUCCUGUGCUACACAUCGUAUGUACCGAAUCGGGAAAAAGGGAAAAAAAGGGAGGGAAAGUAUUAUGUUACGCCGUUCGGAUCUGCACU	0.801
CACAGACAACACGCACCCACACAGACAAAAAGGGAAGGGGUUGGGAUGGGGACAGGGUGCACAGCAGGGCGGGGUAGGACCCCAGCCCCU	-0.307

Set 5 — method: protein-binding microarray; form: double-stranded DNA, one strand shown; sample: in vitro; tested at: 940 nM top; notes: 60-bp whole probe; added: salmon DNA 0.4 mg/ml; reference: random background probes; direction: higher = stronger binding; shared flanks, not repeated: GCCTAGCAC … GTCTTGATTCGCTTGACGCTGCTG
Target: Interferon regulatory factor 5, full length, phosphomimetic (IRF5, Homo sapiens, UniProt Q13568-2, residues 1-514, S451D/S453D/S456D/S462D)
Oligonucleotide	fitted relative affinity [z-score]
TTAGGTATCGGGTATCGGTTAGTGCTA	7.07
GACGGTATCCTTAGCCTGACGTGCTAG	0.24
GACGGTCTCGGTATCGCGACGTGCTAG	3.79
GACGAACTGAGTCTCGAGAGGTGCTAG	0.411
CCTCTGCTCCTCTTTTTTTGGGTGCTA	1.08
TTAGATATCGGGACTGGATTTGTGCTA	0.27
GACGGACGGCTTATCCTGACGTGCTAG	-0.537
GACGATTTCAGACCGGAGACGTGCTAG	-0.297

Mixed results — observed: pseudovirus infection
Structure (SMILES)	tested on	test	test system	setting	how to read	GFP-positive cells
O=C(O)C(=O)O.[NH-][C@@H]1CCCC[C@H]1[NH-].[Pt+2]	Vesicular stomatitis virus	FDA-approved drug library screen		concentration not given, SARS-CoV-2 spike pseudotype	reference: vehicle	99.5%
CC(=O)O[C@H]1Cc2ccccc2N(C(N)=O)c2ccccc21	HEK-293T		VSV pseudotyped with SARS-CoV-2 spike	10 µM, 16 h	reference: vehicle-treated	76.2%
Cl.NCC(=O)CCC(=O)O	Vesicular stomatitis virus	FDA-approved drug library screen		concentration not given, SARS-CoV-2 spike pseudotype	reference: vehicle	91.7%

Excerpt of the above (set 5):
Oligonucleotide	fitted relative affinity [z-score]
GACGGACGGCTTATCCTGACGTGCTAG	-0.537
CCTCTGCTCCTCTTTTTTTGGGTGCTA	1.08
GACGGTATCCTTAGCCTGACGTGCTAG	0.24
GACGAACTGAGTCTCGAGAGGTGCTAG	0.411
